Published values gathered from unrelated publications.
Lines come from different studies, so protocols differ.
Technique: steady-state kinetics
B1: enzyme (Arabidopsis thaliana, UniProt Q949Q0); chain ISGPPDIINTNRDQRKVVRIAWEKLVRWSRSLRAKAKTDVLERTRKVVVLGGGSFGTAMAAHVARRKEGLEVNMLVRDSFVCQSINENHHNCKYFPEHKLPENVIATTDAKAALLDADYCLHAVPVQFSSSFLEGIADYVDPGLPFISLSKGLELNTLRMMSQIIPIALKNPRQPFVALSGPSFALELMNNLPTAMVVASKDKKLANAVQQLLASSYLRINTSSDVTGVEIAGALKNVLAIAAGIVDGMNLGNNSMAALVSQGCSEIRWLATKMGAKPTTITGLSGTGDIMLTCFVNLSRNRTVGVRLGSGETLDDILTSMNQVAEGVATAGAVIALAQKYNVKLPVLTAVAKIIDNELTPTKAVLELMNLPQIEEV
B2: COMT (Homo sapiens, UniProt P21964); chain MPEAPPLLLAAVLLGLVLLVVLLLLLRHWGWGLCLIGWNEFILQPIHNLLMGDTKEQRILNHVLQHAEPGNAQSVLEAIDTYCEQKEWAMNVGDKKGKIVDAVIQEHQPSVLLELGAYCGYSAVRMARLLSPGARLITIEINPDCAAITQRMVDFAGVKDKVTLVVGASQDIIPQLKKKYDVDTLDMVFLDHWKDRYLPDTLLLEECGLLRKGTVLLADNVICPGAPDFLAHVRGSSCFECTHYQSFLEYREVVDGLEKAIYKGPGSEAGP
B3: CMBL (Homo sapiens, UniProt Q96DG6); chain MANEAYPCPCDIGHRLEYGGLGREVQVEHIKAYVTKSPVDAGKAVIVIQDIFGWQLPNTRYIADMISGNGYTTIVPDFFVGQEPWDPSGDWSIFPEWLKTRNAQKIDREISAILKYLKQQCHAQKIGIVGFCWGGTAVHHLMMKYSEFRAGVSVYGIVKDSEDIYNLKNPTLFIFAENDVVIPLKDVSLLTQKLKEHCKVEYQIKTFSGQTHGFVHRKREDCSPADKPYIDEARRNLIEWLNKYM
B4: enzyme S124A (Arabidopsis thaliana, UniProt O82390); chain MNARALLCSSNIHSLYTSNRPPEKTSSSRSLRNLKPSPKSLRVWIYPRNRSSVFRVLVRSSDKSESSNSYYVEGDKVSGNNDVVSDSPSSIVLPWWEEFPKRWVIVLLCFSAFLLCNMDRVNMAIAILPMSAEYGWNPATVGLIQSSFFWGYLLTQIAGGIWADTVGGKRVLGFGVIWWSIATILTPVAAKLGLPYLLVVRAFMGVGEGVAMPAMNNILSKWVPVQERSRSLALVYSGMYLGSVTGLAFSPFLIHQFGWPSVFYSFGSLGTVWLTLWLTKAESSPLEDPTLLPEERKLIADNCASKEPVKSIPWRLILSKPPVWALISCHFCHNWGTFILLTWMPTYYHQVLKFNLMESGLLSVFPWMTMAISANAGGWIADTLVSRGFSVTNVRKIMQTIGFLGPAFFLTQLKHIDSPTMAVLCMACSQGTDAFSQSGLYSNHQDIAPRYSGVLLGLSNTAGVLAGVLGTAATGHILQHGSWDDVFTISVGLYLVGTVIWNLFSTGEKIID
B5: FMO3 D132H (Homo sapiens, UniProt P31513); chain GKKVAIIGAGVSGLASIRSCLEEGLEPTCFEKSNDIGGLWKFSDHAEEGRASIYKSVFSNSSKEMMCFPDFPFPDDFPNFMHNSKIQEYIIAFAKEKNLLKYIQFKTFVSSVNKHPDFATTGQWDVTTERHGKKESAVFDAVMVCSGHHVYPNLPKESFPGLNHFKGKCFHSRDYKEPGVFNGKRVLVVGLGNSGCDIATELSRTAEQVMISSRSGSWVMSRVWDNGYPWDMLLVTRFGTFLKNNLPTAISDWLYVKQMNARFKHENYGLMPLNGVLRKEPVFNDELPASILCGIVSVKPNVKEFTETSAIFEDGTIFEGIDCVIFATGYSFAYPFLDESIIKSRNNEIILFKGVFPPLLEKSTIAVIGFVQSLGAAIPTVDLQSRWAAQVIKGTCTLPSMEDMMNDINEKMEKKRKWFGKSETIQTDYIVYMDELSSFIGAKPNIPWLFLTDPKLAMEVYFGPCSPYQFRLVGPGQWPGARNAILTQWDRSLKPMQTRVVGRLQKPCFFFHWLKLFAIPILLIAVFLVLT
B6: protein (Listeria innocua, UniProt A0ACH1DCV7); chain MESLELEQLVKKVLLEKLAEQKEVPTKTTTQGAKSGVFDTVDEAVQAAVIAQNCYKEKSLEERRNVVKAIREALYPEIETIATRAVAETGMGNVTDKILKNTLAIEKTPGVEDLYTEVATGDNGMTLYELSPYGVIGAVAPSTNPTETLICNSIGMLAAGNAVFYSPHPGAKNISLWLIEKLNTIVRDSCGIDNLIVTVAKPSIQAAQEMMNHPKVPLLVITGGPGVVLQAMQSGKKVIGAGAGNPPSIVDETANIEKAAADIVDGASFDHNILCIAEKSVVAVDSIADFLLFQMEKNGALHVTNPSDIQKLEKVAVTDKGVTNKKLVGKSATEILKEAGIACDFTPRLIIVETEKSHPFATVELLMPIVPVVRVPDFDEALEVAIELEQGLHHTATMHSQNISRLNKAARDMQTSIFVKNGPSFAGLGFRGEGSTTFTIATPTGEGTTTARHFARRRRCVLTDGFSIR
B7: UGT1A9 (Homo sapiens, UniProt O60656); chain GKLLVVPMDGSHWFTMRSVVEKLILRGHEVVVVMPEVSWQLGRSLNCTVKTYSTSYTLEDLDREFKAFAHAQWKAQVRSIYSLLMGSYNDIFDLFFSNCRSLFKDKKLVEYLKESSFDAVFLDPFDNCGLIVAKYFSLPSVVFARGILCHYLEEGAQCPAPLSYVPRILLGFSDAMTFKERVRNHIMHLEEHLLCHRFFKNALEIASEILQTPVTEYDLYSHTSIWLLRTDFVLDYPKPVMPNMIFIGGINCHQGKPLPMEFEAYINASGEHGIVVFSLGSMVSEIPEKKAMAIADALGKIPQTVLWRYTGTRPSNLANNTILVKWLPQNDLLGHPMTRAFITHAGSHGVYESICNGVPMVMMPLFGDQMDNAKRMETKGAGVTLNVLEMTSEDLENALKAVINDKSYKENIMRLSSLHKDRPVEPLDLAVFWVEFVMRHKGAPHLRPAAHDLTWYQYHSLDVIGFLLAVVLTVAFITFKCCAYGYRKCLGKKGRVKKAHKSKTH
B8: ileS (Streptococcus pneumoniae, UniProt Q04JB0); chain MKLKDTLNLGKTEFPMRAGLPTKEPVWQKEWEYAKLYQRRQELNQGKPHFTLHDGPPYANGNIHVGHAMNKISKDIIVRSKSMSGFYAPFIPGWDTHGLPIEQVLSKQGVKRKEMDLVEYLKLCREYALSQVDKQREDFKRLGVSGDWENPYVTLTPDYEAAQIRVFGEMANKGYIYRGAKPVYWSWSSESALAEAEIEYHDLVSTSLYYANKVKDGKGVLDTDTYIVVWTTTPFTITASRGLTVGADIDYVLVQPAGEARKFVVAAELLTSLSEKFGWADVQVLETYRGQELNHIVTEHPWDTAVEELVILGDHVTTDSGTGIVHTAPGFGEDDYNVGIANNLEVAVTVDERGIMMKNAGPEFEGQFYEKVVPTVIEKLGNLLLAQEEISHSYPFDWRTKKPIIWRAVPQWFASVSKFRQEILDEIEKVKFHSEWGKVRLYNMIRDRGDWVISRQRAWGVPLPIFYAEDGTAIMVAETIEHVAQLFEEHGSSIWWERDAKDLLPEGFTHPGSPNGEFKKETDIMDVWFDSGSSWNGVVVNRPELTYPADLYLEGSDQYRGWFNSSLITSVANHGVAPYKQILSQGFALDGKGEKMSKSLGNTIAPSDVEKQFGAEILRLWVTSVDSSNDVRISMDILSQVSETYRKIRNTLRFLIANTSDFNPAQDTVAYDELRSVDKYMTIRFNQLVKTIRDAYADFEFLTIYKALVNFINVDLSAFYLDFAKDVVYIEGAKSLERRQMQTVFYDILVKITKLLTPILPHTAEEIWSYLEFETEDFVQLSELPEVQTFANQEEILDTWAAFMDFRGQAQKALEEARNAKVIGKSLEAHLTVYPNEVVKTLLEAVNSNVAQLLIVSELTIAEGPAPEAALSFEDVAFTVERATGEVCDRCRRIDPTTAERSYQAVICDHCASIVEENFAEAVAEGFEEK
UniProt Q6ZQB6, sequence (whole entry, looked up): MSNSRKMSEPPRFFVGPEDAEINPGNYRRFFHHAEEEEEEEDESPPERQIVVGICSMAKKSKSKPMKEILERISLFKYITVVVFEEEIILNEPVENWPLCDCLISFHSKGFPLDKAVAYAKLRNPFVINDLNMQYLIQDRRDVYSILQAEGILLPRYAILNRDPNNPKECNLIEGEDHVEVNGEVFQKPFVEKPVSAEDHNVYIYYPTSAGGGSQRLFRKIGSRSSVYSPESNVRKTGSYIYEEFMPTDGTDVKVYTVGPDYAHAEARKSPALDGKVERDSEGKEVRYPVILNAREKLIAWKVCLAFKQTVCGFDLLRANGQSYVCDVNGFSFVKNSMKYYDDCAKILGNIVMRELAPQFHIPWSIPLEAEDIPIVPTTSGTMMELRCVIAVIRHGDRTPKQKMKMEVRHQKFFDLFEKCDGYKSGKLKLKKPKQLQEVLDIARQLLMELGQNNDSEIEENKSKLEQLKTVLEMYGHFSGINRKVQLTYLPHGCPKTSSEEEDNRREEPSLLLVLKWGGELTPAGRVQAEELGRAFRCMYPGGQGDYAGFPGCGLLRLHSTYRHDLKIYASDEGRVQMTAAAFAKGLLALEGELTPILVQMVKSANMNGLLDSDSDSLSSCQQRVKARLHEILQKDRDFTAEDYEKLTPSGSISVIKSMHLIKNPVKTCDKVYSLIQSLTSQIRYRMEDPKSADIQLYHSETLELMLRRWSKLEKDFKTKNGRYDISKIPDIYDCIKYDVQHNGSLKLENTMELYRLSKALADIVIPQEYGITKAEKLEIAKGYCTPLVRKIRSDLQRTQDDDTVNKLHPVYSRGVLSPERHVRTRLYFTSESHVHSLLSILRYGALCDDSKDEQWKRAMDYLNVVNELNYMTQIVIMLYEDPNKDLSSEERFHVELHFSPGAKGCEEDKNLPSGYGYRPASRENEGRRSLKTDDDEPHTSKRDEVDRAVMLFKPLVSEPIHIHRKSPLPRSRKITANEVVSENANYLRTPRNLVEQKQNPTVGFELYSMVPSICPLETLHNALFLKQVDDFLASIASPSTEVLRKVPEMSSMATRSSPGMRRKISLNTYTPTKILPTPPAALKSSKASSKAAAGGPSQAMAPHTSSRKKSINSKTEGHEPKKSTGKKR
UniProt Q99518, sequence (whole entry, looked up): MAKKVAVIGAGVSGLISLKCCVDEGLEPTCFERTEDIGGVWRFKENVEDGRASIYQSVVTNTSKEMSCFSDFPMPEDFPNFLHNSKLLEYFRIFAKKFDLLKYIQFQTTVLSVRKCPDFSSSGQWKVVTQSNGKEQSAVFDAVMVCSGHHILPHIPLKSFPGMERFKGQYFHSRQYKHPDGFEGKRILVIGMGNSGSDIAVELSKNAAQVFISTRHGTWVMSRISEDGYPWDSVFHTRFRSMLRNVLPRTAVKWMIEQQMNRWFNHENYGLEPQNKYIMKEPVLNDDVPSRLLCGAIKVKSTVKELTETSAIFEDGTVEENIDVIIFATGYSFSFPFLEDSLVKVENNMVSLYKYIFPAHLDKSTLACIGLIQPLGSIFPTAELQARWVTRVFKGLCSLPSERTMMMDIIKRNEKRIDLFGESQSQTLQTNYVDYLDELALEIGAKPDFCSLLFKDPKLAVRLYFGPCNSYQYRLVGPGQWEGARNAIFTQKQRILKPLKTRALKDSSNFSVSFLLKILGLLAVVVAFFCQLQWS
UniProt H6U1I8, sequence (whole entry, looked up): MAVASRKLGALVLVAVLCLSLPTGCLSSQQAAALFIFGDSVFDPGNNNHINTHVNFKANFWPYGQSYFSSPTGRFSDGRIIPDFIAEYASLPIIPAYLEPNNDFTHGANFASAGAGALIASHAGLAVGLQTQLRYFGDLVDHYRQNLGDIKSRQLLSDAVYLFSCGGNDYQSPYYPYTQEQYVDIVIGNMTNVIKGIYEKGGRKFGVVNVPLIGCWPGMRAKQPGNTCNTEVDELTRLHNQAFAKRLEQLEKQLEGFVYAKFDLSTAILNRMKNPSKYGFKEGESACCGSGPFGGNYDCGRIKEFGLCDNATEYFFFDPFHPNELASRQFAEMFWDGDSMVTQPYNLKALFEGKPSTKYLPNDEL
UniProt P42982, sequence (whole entry, looked up): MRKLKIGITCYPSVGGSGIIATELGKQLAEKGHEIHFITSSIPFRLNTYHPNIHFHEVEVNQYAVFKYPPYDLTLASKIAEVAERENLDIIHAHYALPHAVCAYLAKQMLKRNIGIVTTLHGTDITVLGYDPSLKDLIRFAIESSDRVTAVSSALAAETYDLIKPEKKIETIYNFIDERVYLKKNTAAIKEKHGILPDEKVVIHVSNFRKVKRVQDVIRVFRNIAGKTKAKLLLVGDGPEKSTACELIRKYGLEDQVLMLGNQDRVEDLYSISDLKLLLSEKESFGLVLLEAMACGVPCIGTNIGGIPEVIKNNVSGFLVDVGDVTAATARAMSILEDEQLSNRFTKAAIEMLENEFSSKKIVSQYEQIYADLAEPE
UniProt P11509, sequence (whole entry, looked up): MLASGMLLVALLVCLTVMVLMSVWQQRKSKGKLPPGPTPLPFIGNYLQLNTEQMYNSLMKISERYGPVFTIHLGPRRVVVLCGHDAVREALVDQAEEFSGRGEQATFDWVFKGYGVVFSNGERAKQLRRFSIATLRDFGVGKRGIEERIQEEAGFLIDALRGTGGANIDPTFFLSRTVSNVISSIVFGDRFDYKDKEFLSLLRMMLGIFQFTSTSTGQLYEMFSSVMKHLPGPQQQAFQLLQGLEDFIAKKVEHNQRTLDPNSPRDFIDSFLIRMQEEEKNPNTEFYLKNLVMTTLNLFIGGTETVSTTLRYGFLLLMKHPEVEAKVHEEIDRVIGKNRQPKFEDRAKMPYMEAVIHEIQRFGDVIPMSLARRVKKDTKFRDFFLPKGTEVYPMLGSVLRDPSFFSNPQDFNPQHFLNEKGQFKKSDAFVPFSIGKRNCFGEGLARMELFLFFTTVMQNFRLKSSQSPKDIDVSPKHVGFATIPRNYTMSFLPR
UniProt P00813, sequence (whole entry, looked up): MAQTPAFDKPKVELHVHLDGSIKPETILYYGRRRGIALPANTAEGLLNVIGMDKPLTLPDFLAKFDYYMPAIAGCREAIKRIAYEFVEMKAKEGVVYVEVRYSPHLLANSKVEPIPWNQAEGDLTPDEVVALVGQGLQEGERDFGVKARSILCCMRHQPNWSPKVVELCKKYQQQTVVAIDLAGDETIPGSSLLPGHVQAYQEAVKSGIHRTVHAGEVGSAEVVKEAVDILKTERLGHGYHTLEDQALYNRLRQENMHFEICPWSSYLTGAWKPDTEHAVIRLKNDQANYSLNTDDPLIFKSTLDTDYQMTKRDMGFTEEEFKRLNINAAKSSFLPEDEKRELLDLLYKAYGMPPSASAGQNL

The Vmax of `bshA (Bacillus subtilis, UniProt P42982)` is reported as 11.2 µmol/min/mg (O=C(O)C[C@H](O)C(=O)O; pH 7.5, 37 °C, apparent, together with: UDP-GlcNAc 10 mM).
With `enzyme (Candida albicans, UniProt A0A1D8PHX1)` the Vmax was 0.0582 µmol/min/mg (CC/C=C\C/C=C\C/C=C\CCCCCCCC(=O)SCCNC(=O)CCNC(=O)[C@H](O)C(C)(C)COP(=O)(O)OP(=O)(O)OC[C@H]1O[C@@H](n2cnc3c(N)ncnc32)[C@H](O)[C@@H]1OP(=O)(O)O; pH 7.4, 37 °C, apparent, not purified).
`ADA (Homo sapiens, UniProt P00813)` gave a Vmax of 0.0001 µmol/min/mg (Nc1ncnc2c1ncn2[C@@H]1O[C@H](CO)C[C@H]1O; human erythrocytes; pH 5.8, 37 °C).
For `B1 (enzyme)`, the Vmax was 41.1 µmol/min/mg (O=C(CO)COP(=O)(O)O; pH 7.2, 30 °C, apparent).
The Vmax of `B2 (COMT)` is reported as 0.00018 µmol/min/mg (O=c1oc2c(O)c(O)ccc2cc1-c1nc2ccccc2s1; human liver S9; pH 7.4, 37 °C).
`B3 (CMBL)` gave a Vmax of 0.0164 µmol/min/mg (Cc1oc(=O)oc1COC(=O)C1=C([C@H]2CCCO2)S[C@@H]2[C@@H]([C@@H](C)O)C(=O)N12; lysate; pH 7.4, 37 °C, not purified).
`B4 (enzyme S124A)` gave a Vmax of 0.000848 µmol/min/mg (O=P(O)(O)O; pH 6.5, 25 °C, apparent, not purified).
For `CYP2A6 (Homo sapiens, UniProt P11509)`, the Vmax was 1.7e-05 µmol/min/mg (CN1C(=O)CC[C@H]1c1cccnc1; microsomes; pH 6.7, cotinine to COX, not purified).
For `Ppip5k2 (Mus musculus, UniProt Q6ZQB6)`, the Vmax was 0.0442 µmol/min/mg (O=P(O)(O)O[C@@H]1[C@@H](OP(=O)(O)O)[C@H](OP(=O)(O)OP(=O)(O)O)[C@@H](OP(=O)(O)O)[C@H](OP(=O)(O)OP(=O)(O)O)[C@@H]1OP(=O)(O)O; pH 5, 37 °C).
For `B5 (FMO3 D132H)`, the Vmax was 7.9e-06 µmol/min/mg (CN1CCC[C@H]1c1cccnc1; HEK293 microsomes; 37 °C, not purified, together with: NADPH regenerating system).
With `enzyme (Tanacetum cinerariifolium, UniProt H6U1I8)` the Vmax was 0.1 µmol/min/mg (CC/C=C\CC1=C(C)[C@@H](O)CC1=O; pH 7.5, 25 °C).
With `FMO2 (Homo sapiens, UniProt Q99518)` the Vmax was 6.5e-06 µmol/min/mg (CN1CCC[C@H]1c1cccnc1; HEK293 microsomes; 37 °C, not purified, together with: NADPH regenerating system).
The Vmax of `B6 (protein)` is reported as 9.06 µmol/min/mg (CC=O; cell extract; not purified, together with: CoA).
`B7 (UGT1A9)` gave a Vmax of 0.0033 µmol/min/mg (COc1cc(OC)c2c(=O)c(O)c(-c3ccccc3)oc2c1; pH 7.4, 37 °C).
With `B8 (ileS)` the Vmax was 0.0005 µM/min/mg (CC[C@H](C)[C@H](N)C(=O)O; pH 7.2, 37 °C, together with: ATP 2 mM).
